# Assay results gathered from unrelated publications.
# Protocols differ between the studies behind these lines.
# Potassium/sodium hyperpolarization-activated cyclic nucleotide-gated channel 1: Potassium/sodium hyperpolarization-activated cyclic nucleotide-gated channel 1 (Homo sapiens, UniProt O60741)
# UniProt O60741, sequence (whole entry, looked up): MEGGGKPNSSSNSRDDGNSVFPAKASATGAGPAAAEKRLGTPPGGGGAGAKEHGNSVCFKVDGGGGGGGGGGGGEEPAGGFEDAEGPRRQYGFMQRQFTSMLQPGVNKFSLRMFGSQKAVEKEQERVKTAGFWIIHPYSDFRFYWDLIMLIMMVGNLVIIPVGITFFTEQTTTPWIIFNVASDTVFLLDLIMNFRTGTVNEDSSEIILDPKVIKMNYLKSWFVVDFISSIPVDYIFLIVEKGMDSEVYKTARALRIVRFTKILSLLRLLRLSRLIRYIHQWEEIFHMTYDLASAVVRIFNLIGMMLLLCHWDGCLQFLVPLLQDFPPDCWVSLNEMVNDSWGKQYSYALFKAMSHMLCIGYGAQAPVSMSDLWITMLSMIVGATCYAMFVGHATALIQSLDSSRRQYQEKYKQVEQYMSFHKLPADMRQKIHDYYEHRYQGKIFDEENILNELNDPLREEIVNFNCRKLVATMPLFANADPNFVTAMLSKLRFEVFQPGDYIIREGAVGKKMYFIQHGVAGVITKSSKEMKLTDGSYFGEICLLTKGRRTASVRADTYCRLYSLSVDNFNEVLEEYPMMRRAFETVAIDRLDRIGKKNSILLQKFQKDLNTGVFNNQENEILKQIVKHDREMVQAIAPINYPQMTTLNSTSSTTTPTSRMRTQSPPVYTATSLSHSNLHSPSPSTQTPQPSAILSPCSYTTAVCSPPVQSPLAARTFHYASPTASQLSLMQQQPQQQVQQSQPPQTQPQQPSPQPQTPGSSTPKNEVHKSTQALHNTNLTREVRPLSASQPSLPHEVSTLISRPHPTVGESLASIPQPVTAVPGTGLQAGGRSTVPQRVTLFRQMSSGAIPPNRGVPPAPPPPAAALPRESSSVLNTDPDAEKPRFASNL
# PPO3: PPO3 (Agaricus bisporus, UniProt C7FF04)
# UniProt C7FF04, sequence (whole entry, looked up): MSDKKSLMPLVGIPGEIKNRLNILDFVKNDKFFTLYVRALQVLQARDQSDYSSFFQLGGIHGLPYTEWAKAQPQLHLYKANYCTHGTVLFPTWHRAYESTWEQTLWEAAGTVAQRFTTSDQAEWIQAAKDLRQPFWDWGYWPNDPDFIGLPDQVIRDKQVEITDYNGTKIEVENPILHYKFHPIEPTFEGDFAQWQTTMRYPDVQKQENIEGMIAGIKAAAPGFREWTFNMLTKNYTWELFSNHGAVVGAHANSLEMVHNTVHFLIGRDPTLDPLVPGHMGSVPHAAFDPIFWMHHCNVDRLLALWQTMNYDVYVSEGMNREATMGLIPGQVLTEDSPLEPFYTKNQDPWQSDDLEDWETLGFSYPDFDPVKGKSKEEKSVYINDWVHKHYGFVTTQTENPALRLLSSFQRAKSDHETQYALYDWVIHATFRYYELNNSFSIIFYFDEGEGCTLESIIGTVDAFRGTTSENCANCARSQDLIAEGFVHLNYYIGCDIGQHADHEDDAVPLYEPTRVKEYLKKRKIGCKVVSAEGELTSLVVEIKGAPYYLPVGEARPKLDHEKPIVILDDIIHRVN
# 4'-phosphopantetheinyl transferase PptT: 4'-phosphopantetheinyl transferase PptT (Mycobacterium tuberculosis, UniProt O33336)
# UniProt O33336, sequence (whole entry, looked up): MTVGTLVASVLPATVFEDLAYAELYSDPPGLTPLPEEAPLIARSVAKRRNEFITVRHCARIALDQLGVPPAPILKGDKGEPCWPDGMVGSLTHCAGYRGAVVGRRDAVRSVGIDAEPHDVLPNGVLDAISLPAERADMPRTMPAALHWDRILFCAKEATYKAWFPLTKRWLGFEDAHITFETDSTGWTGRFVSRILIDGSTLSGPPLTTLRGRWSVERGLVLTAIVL
# UniProt O43148, sequence (whole entry, looked up): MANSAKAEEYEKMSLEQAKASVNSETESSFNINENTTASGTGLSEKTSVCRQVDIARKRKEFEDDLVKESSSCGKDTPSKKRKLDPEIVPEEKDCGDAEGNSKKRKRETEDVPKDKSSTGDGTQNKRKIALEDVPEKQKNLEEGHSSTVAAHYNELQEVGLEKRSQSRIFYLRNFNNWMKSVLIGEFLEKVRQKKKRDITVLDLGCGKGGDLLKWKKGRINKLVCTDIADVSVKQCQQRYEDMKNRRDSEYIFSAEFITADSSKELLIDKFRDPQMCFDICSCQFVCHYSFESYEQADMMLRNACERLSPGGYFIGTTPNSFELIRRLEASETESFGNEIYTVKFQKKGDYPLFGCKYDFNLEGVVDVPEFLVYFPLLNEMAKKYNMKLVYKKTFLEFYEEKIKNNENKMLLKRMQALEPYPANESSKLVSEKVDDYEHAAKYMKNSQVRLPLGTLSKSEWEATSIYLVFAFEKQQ
# UniProt Q9NSA0, sequence (whole entry, looked up): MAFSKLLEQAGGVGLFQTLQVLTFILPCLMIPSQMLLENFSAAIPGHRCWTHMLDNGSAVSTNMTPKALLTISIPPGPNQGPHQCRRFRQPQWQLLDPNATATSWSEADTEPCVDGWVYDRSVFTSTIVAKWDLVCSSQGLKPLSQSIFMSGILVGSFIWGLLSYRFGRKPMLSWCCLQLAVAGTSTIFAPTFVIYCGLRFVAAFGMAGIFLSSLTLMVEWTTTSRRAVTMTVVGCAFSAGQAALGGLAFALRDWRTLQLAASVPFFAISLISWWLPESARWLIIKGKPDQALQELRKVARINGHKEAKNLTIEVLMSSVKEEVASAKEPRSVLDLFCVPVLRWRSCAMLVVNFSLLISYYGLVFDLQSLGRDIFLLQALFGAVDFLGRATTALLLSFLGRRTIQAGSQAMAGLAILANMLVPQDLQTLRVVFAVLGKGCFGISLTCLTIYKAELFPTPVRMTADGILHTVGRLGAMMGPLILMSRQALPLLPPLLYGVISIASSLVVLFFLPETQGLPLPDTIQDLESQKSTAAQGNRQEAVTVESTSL
# UniProt P21728, sequence (whole entry, looked up): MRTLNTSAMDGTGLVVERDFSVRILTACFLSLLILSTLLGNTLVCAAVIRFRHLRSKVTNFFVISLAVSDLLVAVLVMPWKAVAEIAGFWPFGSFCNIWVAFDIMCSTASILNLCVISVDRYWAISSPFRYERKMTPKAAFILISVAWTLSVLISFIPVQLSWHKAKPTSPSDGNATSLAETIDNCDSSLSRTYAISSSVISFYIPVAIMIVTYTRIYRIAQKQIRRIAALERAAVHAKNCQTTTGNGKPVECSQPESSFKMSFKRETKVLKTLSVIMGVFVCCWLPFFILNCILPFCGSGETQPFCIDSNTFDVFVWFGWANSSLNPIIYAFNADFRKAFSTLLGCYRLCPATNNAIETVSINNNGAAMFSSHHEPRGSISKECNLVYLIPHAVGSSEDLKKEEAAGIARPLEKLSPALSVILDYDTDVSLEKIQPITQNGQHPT
# UniProt Q02750, sequence (whole entry, looked up): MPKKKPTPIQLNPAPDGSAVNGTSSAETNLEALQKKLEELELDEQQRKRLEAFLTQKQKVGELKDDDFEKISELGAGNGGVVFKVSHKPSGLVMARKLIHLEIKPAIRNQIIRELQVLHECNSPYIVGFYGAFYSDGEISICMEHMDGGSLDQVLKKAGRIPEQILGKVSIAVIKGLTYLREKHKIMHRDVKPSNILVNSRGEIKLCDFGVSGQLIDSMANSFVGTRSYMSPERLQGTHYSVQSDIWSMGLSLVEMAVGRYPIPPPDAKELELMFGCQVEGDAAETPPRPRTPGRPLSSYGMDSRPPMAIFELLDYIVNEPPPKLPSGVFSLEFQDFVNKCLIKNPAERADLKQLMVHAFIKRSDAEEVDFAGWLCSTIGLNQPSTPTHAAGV
# UniProt P33535, sequence (whole entry, looked up): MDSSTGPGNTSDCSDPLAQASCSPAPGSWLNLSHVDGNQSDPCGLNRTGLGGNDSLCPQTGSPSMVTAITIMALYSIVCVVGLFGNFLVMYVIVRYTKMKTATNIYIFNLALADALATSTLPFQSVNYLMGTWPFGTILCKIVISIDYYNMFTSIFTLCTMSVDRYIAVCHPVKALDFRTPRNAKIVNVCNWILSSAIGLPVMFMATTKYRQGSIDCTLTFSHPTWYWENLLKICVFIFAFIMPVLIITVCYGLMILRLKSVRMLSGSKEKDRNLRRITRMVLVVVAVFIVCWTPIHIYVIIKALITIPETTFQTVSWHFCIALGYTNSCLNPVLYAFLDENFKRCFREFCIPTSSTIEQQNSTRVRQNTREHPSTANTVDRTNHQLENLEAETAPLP
# UniProt O15146, sequence (whole entry, looked up): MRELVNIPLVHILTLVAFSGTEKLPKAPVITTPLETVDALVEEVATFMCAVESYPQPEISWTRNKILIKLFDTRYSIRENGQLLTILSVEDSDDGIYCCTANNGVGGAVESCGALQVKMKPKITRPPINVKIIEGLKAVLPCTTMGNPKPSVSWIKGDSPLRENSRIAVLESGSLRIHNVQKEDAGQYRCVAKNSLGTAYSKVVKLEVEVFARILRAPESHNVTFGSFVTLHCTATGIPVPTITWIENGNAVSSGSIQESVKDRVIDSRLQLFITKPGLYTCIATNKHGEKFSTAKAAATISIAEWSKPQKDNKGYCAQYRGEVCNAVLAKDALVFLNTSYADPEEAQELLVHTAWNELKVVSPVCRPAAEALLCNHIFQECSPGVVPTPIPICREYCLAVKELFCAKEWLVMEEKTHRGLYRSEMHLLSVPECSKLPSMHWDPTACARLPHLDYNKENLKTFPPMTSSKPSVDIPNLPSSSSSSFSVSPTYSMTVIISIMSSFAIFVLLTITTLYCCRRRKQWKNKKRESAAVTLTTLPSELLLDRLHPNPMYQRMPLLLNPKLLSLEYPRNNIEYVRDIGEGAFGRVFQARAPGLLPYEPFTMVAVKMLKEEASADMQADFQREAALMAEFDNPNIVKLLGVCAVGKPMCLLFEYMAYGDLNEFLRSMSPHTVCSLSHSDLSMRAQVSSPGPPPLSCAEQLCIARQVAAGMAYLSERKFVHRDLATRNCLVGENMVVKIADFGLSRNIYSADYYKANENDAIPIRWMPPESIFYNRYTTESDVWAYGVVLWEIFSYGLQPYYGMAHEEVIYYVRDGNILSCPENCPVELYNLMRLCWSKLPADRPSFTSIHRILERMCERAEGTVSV
SMILES,target,assay,conditions,measurement,result
Nc1ncnc2c1ncn2[C@@H]1O[C@H](C[C@@H](N)CC[C@H](N)C(=O)O)[C@@H](O)[C@H]1O,"mRNA cap guanine-N(7) methyltransferase (RNMT, Homo sapiens, UniProt O43148)","enzyme activity, inhibitor",200 µM,inhibition,95.2%
CCC(CNc1nc(-c2cn3ccnc3cc2C)nc2ccccc12)c1ccccc1 (stereo not shown),"Sodium-dependent dopamine transporter (SLC6A3, Homo sapiens, UniProt Q01959)","transporter uptake, inhibitor, radiometric",10 µM,inhibition,40.2%
CN1CCC[C@H]1c1cccnc1,"D(1A) dopamine receptor (DRD1, Homo sapiens, UniProt P21728)",ligand displacement,50 µM,inhibition,-2.56%
Cn1cc(-c2cccc(N3CCc4c(sc5c4CC(C)(C)C5)C3=O)c2CO)cc(Nc2ccncn2)c1=O,"Casein kinase II subunit alpha (CSNK2A1, Homo sapiens, UniProt P68400)","enzyme activity, inhibitor",1 µM,inhibition,3%
Cn1c(=O)c2[nH]cnc2n(C)c1=O,Potassium/sodium hyperpolarization-activated cyclic nucleotide-gated channel 1,"ion current, inhibitor",10 µM,inhibition,11.7%
COc1cc(/C=C/C(=O)O)ccc1OCc1cn(CC(=O)Nc2ccc(O)cc2)nn1,PPO3,"enzyme activity, inhibitor",40 µM,inhibition,10.4%
Nc1c(Br)cc(Br)cc1CN[C@H]1CC[C@H](O)CC1,Potassium/sodium hyperpolarization-activated cyclic nucleotide-gated channel 1,"ion current, inhibitor",10 µM,inhibition,-1.22%
CCCCC(=O)N(Cc1ccc(-c2ccccc2-c2nnn[nH]2)cc1)[C@H](C(=O)O)C(C)C,"Solute carrier family 22 member 11 (SLC22A11, Homo sapiens, UniProt Q9NSA0)","transporter uptake, inhibitor",25 µM,inhibition,50 to 90%
Cc1nnc(SCC2=C(C(=O)O)N3C(=O)[C@@H](NC(=O)Cn4cnnn4)[C@H]3SC2)s1,Potassium/sodium hyperpolarization-activated cyclic nucleotide-gated channel 1,"ion current, inhibitor",30 µM,inhibition,-3.71%
O=c1cc(N2CCOCC2)oc2c(-c3ccccc3)cccc12,"Phosphatidylinositol 4,5-bisphosphate 3-kinase catalytic subunit gamma isoform (PIK3CG, Homo sapiens, UniProt P48736)","enzyme activity, inhibitor, ADP detection",10 µM,inhibition,78.9%
O=c1c2nc(Cl)ccc2[nH]c(=S)n1Cc1cccnc1,4'-phosphopantetheinyl transferase PptT,"enzyme activity, inhibitor, FP",,IC50,1900 nM
CC(=O)Nc1ccc(O)cc1,Potassium/sodium hyperpolarization-activated cyclic nucleotide-gated channel 1,"ion current, inhibitor",3 µM,inhibition,4.42%
COc1cc(Nc2ncc(F)c(Nc3ccc4c(n3)NC(=O)C(C)(C)O4)n2)cc(OC)c1OC,"Serine/threonine-protein kinase 38 (STK38, Homo sapiens, UniProt Q15208)",binding,10 µM,inhibition,65%
c1cncc([C@@H]2CCCN2)c1,"Alpha-1D adrenergic receptor (ADRA1D, Homo sapiens, UniProt P25100)",ligand displacement,50 µM,inhibition,-11.2%
CC(C)C[C@H]1C(=O)N2CCC[C@H]2[C@]2(O)O[C@](NC(=O)[C@@H]3C=C4c5cccc6[nH]c(Br)c(c56)C[C@H]4[N+](C)(C)C3)(C(C)C)C(=O)N12,"Mu-type opioid receptor (Oprm1, Rattus norvegicus, UniProt P33535)","ligand displacement, radioligand",10 µM,inhibition,72%
O=C1NC(=O)C(c2ccccc2)(c2ccccc2)N1,Potassium/sodium hyperpolarization-activated cyclic nucleotide-gated channel 1,"ion current, inhibitor",10 µM,inhibition,-0.413%
CC(C)CC(=O)OC[C@H]1O[C@@](C#N)(c2ccc3c(N)ncnn23)[C@H](O)[C@@H]1O,"Glucocorticoid receptor (NR3C1, Homo sapiens, UniProt P04150)",cell-free assay,20 µM,inhibition,-3%
[2H]c1c([2H])c([C@]2([2H])CCCN2C(=O)C(C)(C)Oc2ccc3cn[nH]c3c2)c([2H])c([2H])c1C([2H])([2H])[2H],"Dual serine/threonine and tyrosine protein kinase (DSTYK, Homo sapiens, UniProt Q6XUX3)","binding, competition with immobilised ligand",1 µM,remaining binding,93%
Cc1nn(C)cc1-c1nc2c(N3CCN(Cc4ccc(Cl)cc4)CC3)c(Cl)cnc2[nH]1,"Inhibitor of nuclear factor kappa-B kinase subunit alpha (CHUK, Homo sapiens, UniProt O15111)","binding, competition with immobilised ligand",1 µM,remaining binding,100%
Nc1ncc(-c2nc(N3CCOCC3)nc(N3CCOCC3)n2)c(C(F)F)n1,"Cyclin-dependent kinase-like 5 (CDKL5, Homo sapiens, UniProt O76039)","binding, competition with immobilised ligand",10 µM,remaining binding,67%
C#Cc1n[nH]c2c(-c3cn(C(C)c4ccccn4)c(=O)[nH]c3=O)cc(F)cc12 (stereo not shown),"Dual specificity mitogen-activated protein kinase kinase 1 (MAP2K1, Homo sapiens, UniProt Q02750)","enzyme activity, inhibitor",1 µM,inhibition,17.2%
Cn1cc(-c2cc(F)cc(N3CCn4c(cc5c4CCCC5)C3=O)c2CO)cc(Nc2ccc(N3CCN(C4COC4)CC3)cn2)c1=O,"Cyclin-dependent kinase 9, with cyclin T1 (CDK9, Homo sapiens, UniProt P50750)","enzyme activity, inhibitor",0.1 µM,inhibition,6%
O=c1c2cc(Cl)ccc2[nH]c(=S)n1Cc1cncc(-c2nnn[nH]2)c1,4'-phosphopantetheinyl transferase PptT,"enzyme activity, inhibitor, FP",,IC50,1060 nM
CCCN1C[C@H](CSC)C[C@@H]2c3cccc4[nH]cc(c34)C[C@H]21,Potassium/sodium hyperpolarization-activated cyclic nucleotide-gated channel 1,"ion current, inhibitor",10 µM,inhibition,4.55%
COc1cc(/C=C/C(=O)O)ccc1OCc1cn(CC(=O)Nc2ccc(F)cc2)nn1,PPO3,"enzyme activity, inhibitor",40 µM,inhibition,14.2%
COc1ncccc1-c1cnn2ccc(N3CCN(C(=O)OC(C)C)CC3)nc12,"Muscle, skeletal receptor tyrosine-protein kinase (MUSK, Homo sapiens, UniProt O15146)","binding, competition with immobilised ligand",1 µM,remaining binding,100%
CC(C)NCC(O)COc1cccc2ccccc12 (stereo not shown),Potassium/sodium hyperpolarization-activated cyclic nucleotide-gated channel 1,"ion current, inhibitor",3 µM,inhibition,-3.42%
COc1cc2cc3c4c(cc(OC)c(OC)c4c2cc1OC)CCN3C,"5-hydroxytryptamine receptor 2B (HTR2B, Homo sapiens, UniProt P41595)","ligand displacement, radioligand",10 µM,inhibition,33%

# Some of these lines once more:
SMILES,target,assay,conditions,measurement,result
CCC(CNc1nc(-c2cn3ccnc3cc2C)nc2ccccc12)c1ccccc1 (stereo not shown),"Sodium-dependent dopamine transporter (SLC6A3, Homo sapiens, UniProt Q01959)","transporter uptake, inhibitor, radiometric",10 µM,inhibition,40.2%
CN1CCC[C@H]1c1cccnc1,"D(1A) dopamine receptor (DRD1, Homo sapiens, UniProt P21728)",ligand displacement,50 µM,inhibition,-2.56%
